Experimental data gathered from unrelated publications.
Protocols differ between the studies behind these lines. ± marks the error that the study gave.

Under “log2 fold change”, `Cc1ncsc1-c1ccc(C(C)NC(=O)C2CC(O)CN2C(=O)C(NC(=O)CCCCCCCCCCN2CCCC(Nc3ncc(Cl)c(Nc4ccccc4S(=O)(=O)C(C)C)n3)C2)C(C)(C)C)cc1` (stereo not shown) is recorded as -1.95 (22Rv1; RNA-seq, measured: ZNF879 mRNA; concentration not given; baseline: DMSO).
`O=C1CC[C@H](N2Cc3cc(-c4ccn5ncc(Cl)c5n4)ccc3C2=O)C(=O)N1` — result for “log2 fold change”: -3.27 (MOLM-13; mRNA level, RNA-seq, measured: PSAT1; 200 nM, 24 h; baseline: DMSO).
For `C=CC(=O)N1CCCC(n2c(=O)c3ncccc3n(Cc3ccc(Oc4ccccc4)cc3)c2=O)C1` (stereo not shown), “log2 fold change” read -0.24 (Rec1; measured: EMB; concentration not given; baseline: untreated).
For `C[n+]1cc(NC(=O)c2ccc3ccc4ccc(C(=O)Nc5cc6ccccc6[n+](C)c5)nc4c3n2)cc2ccccc21`, the delta Tm was over 37 °C (MYC promoter parallel G-quadruplex DNA; UV melting; 6 µM, 1 mM potassium, with: DNA 3 µM).
`CN1CCCNC(=O)c2cccc(c2)C(=O)NCCCN(C)CCCNc2cccc3c2C(=O)c2cccc(c2C3=O)NCCC1`: “log2 fold change” -0.821 (SAS; RNA-Seq, measured: SYNE2 mRNA; 1 µM, 6 h; baseline: untreated cells).
`Cc1ncsc1-c1ccc(CNC(=O)[C@@H]2C[C@@H](O)CN2C(=O)[C@@H](NC(=O)CN2CCN(C3CN(CCNC(=O)C[C@@H]4N=C(c5ccc(Cl)cc5)c5c(sc(C)c5C)-n5c(C)nnc54)C3)CC2)C(C)(C)C)cc1` — result for “log2 fold change”: -1.75 (Sf9; global proteomics, measured: XP_035429406.2 XP_035429407.2 XP_035429409.2; 10 µM; baseline: DMSO).
Under “log2 fold change”, `C[C@@H]1Cc2c([nH]c3ccccc23)[C@@H](c2c(F)cc(/C=C/C(=O)O)cc2F)N1C12CC(C1)C2` is recorded as -1.84 (MCF7; RNA-seq, measured: RBM24 mRNA; 1 µM, 24 h, E2-induced gene; baseline: DMSO vehicle).
`Cn1ncc2cc(-c3cncc(Cl)c3N3CCC4(CCNC4=O)CC3)ccc21` — result for “log2 fold change”: 1.39 (LS174T; gene expression, microarray, measured: BHLHE41 mRNA; concentration not given, 4 h; baseline: untreated cells).
`CC[n+]1cccc2cc(/C=N/NC(=O)c3ccc4ccc5ccc(C(=O)N/N=C/c6ccc7c(ccc[n+]7CC)c6)nc5c4n3)ccc21` gave a ΔTm of 1 ± 0.3 °C (hp2 hairpin duplex DNA; FRET melting; 1 µM, with: ds26 10 µM).
`CC(=O)NCCCN(C)CCCNc1cccc2c1C(=O)c1cccc(NCCCN(C)CCCNC(C)=O)c1C2=O`: “log2 fold change” -0.313 (SAS; RNA-Seq, measured: SYNGR2 mRNA; 1 µM, 24 h; baseline: untreated cells).

Repeated from above:
Under “log2 fold change”, `C[C@@H]1Cc2c([nH]c3ccccc23)[C@@H](c2c(F)cc(/C=C/C(=O)O)cc2F)N1C12CC(C1)C2` is recorded as -1.84 (MCF7; RNA-seq, measured: RBM24 mRNA; 1 µM, 24 h, E2-induced gene; baseline: DMSO vehicle).
`Cn1ncc2cc(-c3cncc(Cl)c3N3CCC4(CCNC4=O)CC3)ccc21` — result for “log2 fold change”: 1.39 (LS174T; gene expression, microarray, measured: BHLHE41 mRNA; concentration not given, 4 h; baseline: untreated cells).
